Measurements collected from several papers.
“And” joins repeats or separate records; there may be more than shown. ± marks the error that the study gave.

SMILES	target or system	assay	system	setting	scale	endpoint	value
C[n+]1ccc(/C=N/NC(=O)c2ccc3ccc4ccc(C(=O)N/N=C/c5cc[n+](C)cc5)nc4c3n2)cc1	22CTA telomeric G4-DNA antiparallel	FRET melting	–	1 µM, K10 buffer, DNA 0.2 µM, added: ds26 10 µM	–	ΔTm	10 ± 0.3 °C
COC1CN([C@H]2CC[C@H]([C@@]3(C)Oc4c(Cl)cc(C(=O)NCc5c(SC)cc(C)[nH]c5=O)c(C)c4O3)CC2)C1	–	RNA-seq, measured: RTN2	human, whole blood	dose not given, 24 h	relative to: pretreatment baseline	log2 fold change	1
CCN1CCC(CCNCc2cc3ccccc3nc2SCc2ccccc2)CC1	electron transport chain	proton pumping, ACMA quenching	Pseudomonas aeruginosa inverted membrane vesicles	2 µg/mL, added: NADH	–	inhibition	11%
C[n+]1cccc2cc(/C=N/NC(=O)c3ccc4ccc(C(=O)N/N=C/c5ccc6c(ccc[n+]6C)c5)nc4n3)ccc21	22CTA telomeric G4-DNA antiparallel	FRET melting	–	1 µM, K10 buffer, DNA 0.2 µM	–	ΔTm	15.7 ± 0.1 °C
C=CC(=O)N1[C@H](c2ccc3c(c2)OCO3)c2[nH]c3ccccc3c2C[C@@H]1C(=O)N1CCN(C)CC1	human cyclin E1 N112C-3xFLAG:CDK2	co-IP with TMT proteomics, measured: TUBB	–	concentration not given, P07437	relative to: wild type DMSO	relative co-enrichment	117%
Nc1ncc(-c2cc(-c3cnn(CC(F)(F)F)c3)ncc2F)nc1C(=O)NC1CNCC(F)C1 (centres unmarked)	CDC2L1	KINOMEscan	–	1 µM	relative to: DMSO control	remaining binding	100%
O=c1c(Oc2ccccc2)c(C(F)(F)F)oc2c(O)c(O)ccc12	ROC1-CUL1 E3 subcomplex	Cdc34-ubiquitin discharge	–	100 µM	relative to: input	Cdc34b-ubiquitin remaining	21%
CC(C)Oc1cc(Cl)ccc1CNc1cc(-c2ccccc2)nc2ncnn12	endogenous β-adrenergic receptors	cAMP level, cAMP GloSensor	mock-transfected cells	1 nM, added: isoprenaline 30 nM	higher = more cAMP	cAMP luminescence	28900 a.u. and 24700 a.u. and 22300 a.u.
O=C(N/N=C/c1ccc(C[n+]2ccccc2)cc1)c1cccc(C(=O)N/N=C/c2ccc(C[n+]3ccccc3)cc2)n1	22CTA telomeric G4-DNA antiparallel	FRET melting	–	1 µM, K10 buffer, DNA 0.2 µM, added: ds26 10 µM	–	ΔTm	12.2 ± 0.6 °C
Cc1ncsc1-c1ccc(C(C)NC(=O)C2CC(O)CN2C(=O)C(NC(=O)CCCCCCCCCCN2CCCC(Nc3ncc(Cl)c(Nc4ccccc4S(=O)(=O)C(C)C)n3)C2)C(C)(C)C)cc1 (centres unmarked)	22Rv1	RNA-seq, measured: ZNF790 mRNA	–	concentration not given	relative to: DMSO	log2 fold change	-1.31
c1ccc(-c2n[nH]cc2-c2ccnc3ccccc23)nc1	CKA1 (Candida albicans)	kinase binding, MIB/MS competition	Candida albicans lysate	1 µM	relative to: DMSO	log2 fold change	-0.08
Cc1[nH]nc2c1N=C(c1ccccc1Cl)c1cnc(N3CCOCC3)cc1N2	L-type calcium channel dihydropyridine site, rat	radioligand binding	–	10 µM	–	inhibition	32%
C=CC(=O)Nc1cccc(Cn2ncc3cnc(Nc4cnn(CCOC)c4)nc32)c1	PIK3CB human	binding, KINOMEscan	–	100 nM	lower = stronger binding	percent of control	100%
C[n+]1ccc(/C=N/NC(=O)c2cc(C(=O)N/N=C/c3cc[n+](C)cc3)ncn2)cc1	22CTA telomeric G4-DNA antiparallel	FRET melting	–	1 µM, K10 buffer, DNA 0.2 µM	–	ΔTm	2.1 ± 1.5 °C
OC[C@H]1O[C@@H]2O[C@H]3[C@H](O)[C@@H](O)[C@@H](O[C@H]4[C@H](O)[C@@H](O)[C@@H](O[C@H]5[C@H](O)[C@@H](O)[C@@H](O[C@H]6[C@H](O)[C@@H](O)[C@@H](O[C@H]7[C@H](O)[C@@H](O)[C@@H](O[C@H]1[C@H](O)[C@H]2O)O[C@@H]7CO)O[C@@H]6CO)O[C@@H]5CO)O[C@@H]4CO)O[C@@H]3CO	LuxR	Escherichia coli sensor	–	20 µM	higher = stronger induction	bioluminescence induction	808 ± 75 RLU
CC[n+]1cccc2cc(/C=N/NC(=O)C(=O)N/N=C/c3ccc4c(ccc[n+]4CC)c3)ccc21	22CTA telomeric G4-DNA antiparallel	FRET melting	–	1 µM, K10 buffer, DNA 0.2 µM	–	ΔTm	4 ± 1.7 °C
N#Cc1cccc(-c2ccc([C@H]3[C@@H](F)[C@@H](F)C[C@@H](F)[C@H]3F)cc2)c1	–	liver microsome stability	dog liver microsomes	1 µM	–	hepatic clearance	23 mL/min/kg
CC(=O)c1cnc(N)nc1N1CC[C@H]1c1nn2ccc(Cl)c2c(=O)n1-c1ccccc1	PI3Kβ	KiNativ	dog white blood cell lysate	1 µM	–	binding	78.3%
O=C(NCCO)c1ccc(C2CCCCC2)cc1	–	hepatocyte stability	cryopreserved mouse hepatocytes	1 µM	–	hepatic clearance	76 mL/min/kg
O=C(CCCCCCc1ccccc1)c1ncc(-c2ccc(CBr)cn2)o1	fatty-acid amide hydrolase (mouse)	measured: AEA, OEA, PEA levels	mouse, brain	i.p., dose not given	–	duration of inhibition	> 6 h

For quick reference, copied from above:
SMILES	target or system	assay	system	setting	scale	endpoint	value
O=C(NCCO)c1ccc(C2CCCCC2)cc1	–	hepatocyte stability	cryopreserved mouse hepatocytes	1 µM	–	hepatic clearance	76 mL/min/kg
OC[C@H]1O[C@@H]2O[C@H]3[C@H](O)[C@@H](O)[C@@H](O[C@H]4[C@H](O)[C@@H](O)[C@@H](O[C@H]5[C@H](O)[C@@H](O)[C@@H](O[C@H]6[C@H](O)[C@@H](O)[C@@H](O[C@H]7[C@H](O)[C@@H](O)[C@@H](O[C@H]1[C@H](O)[C@H]2O)O[C@@H]7CO)O[C@@H]6CO)O[C@@H]5CO)O[C@@H]4CO)O[C@@H]3CO	LuxR	Escherichia coli sensor	–	20 µM	higher = stronger induction	bioluminescence induction	808 ± 75 RLU
O=C(CCCCCCc1ccccc1)c1ncc(-c2ccc(CBr)cn2)o1	fatty-acid amide hydrolase (mouse)	measured: AEA, OEA, PEA levels	mouse, brain	i.p., dose not given	–	duration of inhibition	> 6 h
